Measured values pooled from the literature.
Protocols differ between the studies behind these lines. Numbers after ± are the reported error.

| Molecule | assay | system | conditions | AUC(0-t) |
| --- | --- | --- | --- | --- |
| O=C(/C=C/c1ccc(O)c(O)c1/C=C/c1ccc(O)c(O)c1)O[C@H](Cc1ccc(O)c(O)c1)C(=O)O | UPLC-MS/MS | Wistar rat, microcirculation dysfunction model, plasma | oral, 100 mg/kg Salvia miltiorrhiza stem-leaf extract FT | 137 ± 37.4 ng·h/mL |
| colistin methanesulfonate | LC-MS/MS | rat, kidney cortex | i.p., 10 mg/kg colistin base activity | 162 µg·h/g |
| CN(Cc1cnc2nc(N)nc(N)c2n1)c1ccc(C(=O)N[C@@H](CCC(=O)O)C(=O)O)cc1 |  | rat, plasma | oral, 5.0 mg/kg, 2880 min, added: indican 40.0 mg/kg oral | 3.8 ± 0.655 µM·h |
| CS(=O)(=O)c1ccc(-c2cnc(N)c(-c3ccc(C(F)(F)F)nc3)c2)cc1 |  | pregnant female Sprague-Dawley rat, plasma | oral, 30 mg/kg/day, gestation day 17 | 141000 ng·h/mL |
| C[C@@H]1CCN(C(=O)CC#N)C[C@@H]1N(C)c1ncnc2[nH]ccc12 |  | Sprague-Dawley rats, male, plasma | oral, 10 mg/kg, added: linagliptin 5 mg/kg | 11600 ± 4360 ng·h/mL |
| CNC(=O)c1ccc(-c2cnc3ncc(Cc4ccc5ncccc5c4)n3n2)cc1F |  | moderate hepatic impairment | oral, 200 mg, mean | 5920 ng·h/mL |
| O=C(/C=C/c1ccc(O)c(O)c1)O[C@H](Cc1ccc(O)c(O)c1)C(=O)O | UPLC-MS/MS | Wistar rat, microcirculation dysfunction model, plasma | oral, 100 mg/kg Salvia miltiorrhiza stem-leaf extract FT | 110 ± 18.6 ng·h/mL |
| CCCC[C@H](NC(C)=O)C(=O)N[C@H]1CCC(=O)NC[C@@H](C(=O)N[C@@H](Cc2c[nH]c3ccccc23)C(N)=O)NC(=O)[C@H](CCCNC(=N)N)NC(=O)[C@@H](Cc2ccccc2)NC(=O)[C@H](Cc2c[nH]cn2)NC1=O |  | CD Sprague-Dawley rat, male, plasma | subcutaneous, 1.0 mg/kg/day, day 1 | 1030 ng·h/mL |
| CCN1CCN(c2ccc(Nc3cc(N(C)C(=O)Nc4c(Cl)c(OC)cc(OC)c4Cl)ncn3)cc2)CC1 | LC-MS/MS | juvenile female Crl:WI(Han) rats, plasma | oral gavage, 0.1 mg/kg/day, postnatal day 17 | 36.1 ng·h/mL |
| O=C(/C=C/c1ccc(O)c2c1[C@H](C(=O)O)[C@@H](c1ccc(O)c(O)c1)O2)O[C@H](Cc1ccc(O)c(O)c1)C(=O)O | UPLC-MS/MS | Wistar rat, microcirculation dysfunction model, plasma | oral, 100 mg/kg Salvia miltiorrhiza stem-leaf extract FT | 153 ± 60.5 ng·h/mL |
